{"data": "Assay results of several laboratories", "note": "Lines come from different studies, so protocols differ. “And” joins repeats or separate records; there may be more than shown. ± marks the error that the study gave. Ends that are not written are not given here.", "sequence of UniProt P9WNC5 (whole entry, looked up)": "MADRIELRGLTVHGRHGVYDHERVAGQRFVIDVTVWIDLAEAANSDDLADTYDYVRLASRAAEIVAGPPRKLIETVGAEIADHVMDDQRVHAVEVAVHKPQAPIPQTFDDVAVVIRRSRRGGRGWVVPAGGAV", "sequence of UniProt Q62976 (whole entry, unmodified, looked up)": "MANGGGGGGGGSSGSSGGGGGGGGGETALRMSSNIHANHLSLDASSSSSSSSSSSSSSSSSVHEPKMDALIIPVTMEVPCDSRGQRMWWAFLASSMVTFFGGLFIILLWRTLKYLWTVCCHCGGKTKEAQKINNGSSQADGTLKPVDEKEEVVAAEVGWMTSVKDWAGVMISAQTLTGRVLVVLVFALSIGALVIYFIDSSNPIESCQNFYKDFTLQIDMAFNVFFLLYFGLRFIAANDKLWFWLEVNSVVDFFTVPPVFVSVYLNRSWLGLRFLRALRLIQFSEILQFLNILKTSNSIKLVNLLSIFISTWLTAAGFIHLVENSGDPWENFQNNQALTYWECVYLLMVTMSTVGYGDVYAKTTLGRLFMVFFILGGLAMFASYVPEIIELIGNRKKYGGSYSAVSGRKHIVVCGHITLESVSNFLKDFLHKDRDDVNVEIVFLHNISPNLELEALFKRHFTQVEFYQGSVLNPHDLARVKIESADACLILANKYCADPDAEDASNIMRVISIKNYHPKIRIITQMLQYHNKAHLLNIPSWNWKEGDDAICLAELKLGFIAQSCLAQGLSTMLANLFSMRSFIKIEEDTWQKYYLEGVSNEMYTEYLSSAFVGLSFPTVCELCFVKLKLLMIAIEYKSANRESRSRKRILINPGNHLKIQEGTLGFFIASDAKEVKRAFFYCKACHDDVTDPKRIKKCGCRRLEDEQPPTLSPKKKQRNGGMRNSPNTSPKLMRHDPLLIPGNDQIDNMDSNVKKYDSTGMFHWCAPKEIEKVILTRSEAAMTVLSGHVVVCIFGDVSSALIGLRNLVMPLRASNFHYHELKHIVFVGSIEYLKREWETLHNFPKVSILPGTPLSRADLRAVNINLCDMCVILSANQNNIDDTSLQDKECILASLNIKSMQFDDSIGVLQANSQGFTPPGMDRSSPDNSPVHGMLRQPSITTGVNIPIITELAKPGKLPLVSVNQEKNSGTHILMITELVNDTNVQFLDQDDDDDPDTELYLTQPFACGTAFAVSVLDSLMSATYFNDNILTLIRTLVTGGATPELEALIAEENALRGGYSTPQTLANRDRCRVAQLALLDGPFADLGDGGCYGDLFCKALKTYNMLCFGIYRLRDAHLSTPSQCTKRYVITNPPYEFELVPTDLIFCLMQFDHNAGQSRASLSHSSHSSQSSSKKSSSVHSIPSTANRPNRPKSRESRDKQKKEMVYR"}
{"Substance": "Cc1c(Cl)cccc1-c1ccc(CNCCSc2nnnn2-c2ccccc2)o1", "target or system": "SARS-CoV-2", "test": "cytopathic effect, cell-based CPE", "test system": "USA_WA1/2020", "setting": "round 1, 5-point dilution", "endpoint": "AC50", "value": "14100 nM"}
{"Substance": "Cc1cccc(C2CCCN(c3cc(C)nc(N)n3)C2)c1 (stereo not drawn)", "target or system": "Lassa mammarenavirus", "test": "viral replication", "test system": "Huh-7", "setting": "10 µM, 72 h", "endpoint": "remaining activity", "value": "53%"}
{"Substance": "QPLRKLCILHRNPGRCYQKIPAFYYNQKKKQCEGFTWSGCGGNSNRFKTIEECRRTCIRK (dendrotoxin I; ends and bridges not checked; cysteine pairing not given here; sequence looked up)", "target or system": "Kcnma1 (Rattus norvegicus, UniProt Q62976)", "test": "blocker, planar bilayer single channel", "setting": "with: BP", "how to read": "baseline: singly occupied channel", "endpoint": "ΔΔG‡ association", "value": "-0.837 kJ/mol"}
{"Substance": "CCCN(CCC)CCNC(=O)c1cc(-c2ccc(Br)s2)nc2ccccc12", "target or system": "SARS-CoV-2", "test": "cytopathic effect", "test system": "USA_WA1/2020", "setting": "round 2, 5-point", "endpoint": "maximum response", "value": "67.1%"}
{"Substance": "CNC(=O)[C@@H](NC(=O)[C@H](CC(C)C)[C@H](O)C(=O)NO)C(C)(C)C", "target or system": "human fibrinogen", "test": "SDS-PAGE", "test system": "Daboia russelii", "setting": "concentration not given, unit not given, with: RJ venom", "how to read": "baseline: untreated fibrinogen", "endpoint": "remaining fibrinogen Aα chain", "value": 0.882}
{"Substance": "O=C(NCCN1CCCCC1)c1ccc(-c2ccc(N3CCSCC3)nc2)cc1", "target or system": "SARS-CoV-2", "test": "cytopathic effect", "test system": "USA_WA1/2020", "setting": "round 2, 5-point", "endpoint": "efficacy", "value": "57.4%"}
{"Substance": "c1ccc(Oc2cccc(CN3CCC4(CCNCC4)C3)c2)cc1", "target or system": "Lassa mammarenavirus", "test": "viral replication", "test system": "Huh-7", "setting": "10 µM, 72 h", "endpoint": "remaining activity", "value": "46%"}
{"Substance": "CCCC(=O)OCSc1ccccc1C(=O)NCCC(N)=O", "target or system": "HIV-1", "test": "viral replication", "test system": "human PBMC, subtype C 98IN017, CXCR4-tropic clinical isolate", "endpoint": "EC50", "value": "2620 ± 1120 nM"}
{"Substance": "Cc1cc(C)c2[nH]c(C(=O)N3CCOC(c4ccc(F)cc4)C3)c(C)c2c1 (stereo not drawn)", "target or system": "Lassa mammarenavirus", "test": "viral replication", "test system": "Huh-7", "setting": "10 µM, 72 h", "endpoint": "remaining activity", "value": "58%"}
{"Substance": "C=CC/C=C\\C=C/[C@H]1O[C@H]2C[C@H]3O[C@H]4CC[C@H]5O[C@H]6C[C@@]7(C)O[C@@]8(C)[C@@H](O)C[C@H](CCCO)O[C@@H]8C[C@@H]7O[C@@H]6C[C@@H]5O[C@]4(C)C[C@]3(C)O[C@@H]2C=C[C@]1(C)O", "target or system": "Kv3.1-Kv2.1 chimera", "test": "potassium current, inhibitor, patch clamp", "test system": "Ltk- cells", "endpoint": "IC50", "value": "2.4 ± 0.2 nM"}
{"Substance": "GAVILRGHLRIAGHH", "target or system": "human CD4 T cells", "test": "AIM", "test system": "peptide", "endpoint": "responding donors", "value": "8%"}
{"Substance": "CC(C)(C)N1CCC(c2ccccc2)(c2ccccc2)CC1", "target or system": "SARS-CoV-2", "test": "cytopathic effect, cell-based CPE", "test system": "USA_WA1/2020", "setting": "round 1, 5-point dilution", "endpoint": "AC50", "value": "10000 nM"}
{"Substance": "p2o (Trametes ochracea, UniProt Q7ZA32)", "target or system": "CN(C)c1ccc2nc3ccc(N(C)C)c([N+](=O)[O-])c3[s+]c2c1", "test": "steady-state kinetics", "setting": "pH 6.5, 22 °C, apparent", "endpoint": "Km", "value": "120 µM"}
{"Substance": "FIASFRLFARTRSMW", "target or system": "human CD4 T cells", "test": "AIM", "test system": "peptide", "endpoint": "responding donors", "value": "8%"}
{"Substance": "Cc1cn([C@H]2C[C@H](N=[N+]=[N-])[C@@H](CO)O2)c(=O)[nH]c1=O", "target or system": "HIV-1", "test": "viral replication", "test system": "human PBMC, subtype C 93MW959, CCR5-tropic clinical isolate", "endpoint": "EC50", "value": "4.36 ± 2.47 nM"}
{"Substance": "TVTLLPAADLDDFSK", "target or system": "human CD4 T cells", "test": "AIM", "test system": "peptide", "endpoint": "responding donors", "value": "7%"}
{"Substance": "CCCOC(C(=O)OC1CCN(C)CC1)(c1ccccc1)c1ccccc1", "target or system": "HeLa", "test": "Ebola VLP entry", "endpoint": "IC50", "value": "12200 nM"}
{"Substance": "N#CC(C#N)=NNc1cccc(Cl)c1", "target or system": "Escherichia coli", "test": "checkerboard", "test system": "tetracycline-resistant (pBR322)", "setting": "42 µM, with: tetracycline", "endpoint": "tetracycline MIC", "value": "225 µM"}
{"Substance": "NITRFQTL", "test": "AIM", "test system": "peptide, CD8+ T cells from PBMC, human donors", "setting": "HLA-B*08:01 restricted, unit not given", "how to read": "baseline: positive over tested donors", "endpoint": "frequency of responding donors", "value": 20}
{"Substance": "NC(=O)CCNC(=O)c1ccccc1S", "target or system": "HIV-1", "test": "viral replication", "test system": "human PBMC, subtype D 92UG024, CXCR4-tropic clinical isolate", "endpoint": "EC50", "value": "2130 ± 40 nM"}
{"Substance": "CCOP(=S)(OCC)Oc1nc(Cl)c(Cl)cc1Cl", "target or system": "rat CYP2D", "test": "bufuralol 1'-hydroxylation", "test system": "liver microsomes", "setting": "concentration not given", "endpoint": "Vmax", "value": "0.7 ± 0.11 nmol/min/mg protein"}
{"Substance": "Cc1cc(/C=C/C#N)cc(C)c1-n1cnc2cnc(Nc3ccc4cc(C#N)ccc4c3)nc21", "target or system": "HIV-1", "test": "viral replication, single-round infection", "test system": "RT mutant E40K", "endpoint": "EC50", "value": "< 5 nM"}
{"Substance": "CC(C)C[C@H]1[C@@H](c2ccccc2)OC(=O)N1CCCN1CCCCCC1.Cl", "target or system": "HeLa", "test": "Ebola VLP entry", "endpoint": "maximal inhibition", "value": "76%"}
{"Substance": "Cc1cc(/C=C/C#N)cc(C)c1Nc1nc(Nc2ccc3cc(C#N)ccc3c2)ncc1N", "target or system": "HIV-1", "test": "viral replication, single-round infection", "test system": "RT mutant K101E/M184V", "endpoint": "EC50", "value": "< 5 nM"}
{"Substance": "Nc1ncnc2c([C@@H]3N[C@H](CO)[C@@H](O)[C@H]3O)c[nH]c12", "target or system": "Middle East respiratory syndrome-related coronavirus", "test": "viral replication", "test system": "Vero C1008, Jordan N3", "setting": "50 µM", "endpoint": "inhibition", "value": "50.1%"}
{"Substance": "CCCCN(CCCC)CCCNC(=O)c1cc(-c2ccc(Cl)s2)nc2ccccc12", "target or system": "SARS-CoV-2", "test": "cytopathic effect", "test system": "USA_WA1/2020", "setting": "retest, 8-point, duplicates", "endpoint": "maximum response", "value": "75.8%"}
{"Substance": "ω-agatoxin IVA", "test": "cAMP signalling, high-content microscopy", "test system": "DRG neurons, rat, spinal cord injury", "setting": "dose not given, normalised 0 to 1, unit not given, with: forskolin, DAMGO 0.3", "how to read": "baseline: DAMGO maximum, higher = stronger inhibition", "endpoint": "PKA-RII phosphorylation inhibition", "value": "0.838 and 0.732 and 0.568"}
{"Substance": "O=C1Nc2ccc(Cl)cc2[C@@](C#CC2CC2)(C(F)(F)F)O1", "target or system": "HIV-1", "test": "viral replication, single-round infection", "test system": "RT mutant P236L", "endpoint": "EC50", "value": "0.2 ± 0.04 nM"}
{"Substance": "O=C1CC2(CCN(S(=O)(=O)c3ccc(-n4cccn4)cc3)CC2)CN1", "target or system": "Lassa mammarenavirus", "test": "viral replication", "test system": "Huh-7", "setting": "10 µM, 72 h", "endpoint": "remaining activity", "value": "45%"}
{"Substance": "IGNYKLNTDHSSSSD", "target or system": "human CD4 T cells", "test": "AIM", "test system": "peptide", "endpoint": "responding donors", "value": "15%"}
{"Substance": "Nc1ncnc2ccc(-c3ccc4c(c3)OCCO4)cc12", "target or system": "Lassa mammarenavirus", "test": "viral replication", "test system": "Huh-7", "setting": "10 µM, 72 h", "endpoint": "remaining activity", "value": "51%"}
{"Substance": "RPLLESEL", "test": "AIM", "test system": "peptide, CD8+ T cells from PBMC, human donors", "setting": "HLA-B*07:02 restricted, unit not given", "how to read": "baseline: positive over tested donors", "endpoint": "frequency of responding donors", "value": 50}
{"Substance": "Cn1c(Cn2ccc(C(F)(F)F)c(Oc3cc(Cl)cc(C#N)c3)c2=O)n[nH]c1=O", "target or system": "HIV-1", "test": "viral replication, single-round infection", "test system": "RT mutant K101P", "endpoint": "EC50", "value": "1 ± 0.3 nM"}
{"Substance": "ARKSAPLIELCVDEA", "target or system": "human CD4 T cells", "test": "AIM", "test system": "peptide", "endpoint": "responding donors", "value": "18%"}
{"Substance": "bivalirudin", "target or system": "Replicase polyprotein 1ab, main protease (rep, Severe acute respiratory syndrome coronavirus 2, UniProt P0DTD1)", "test": "enzyme activity, Gaussia luciferase reporter", "test system": "SARS-CoV-2", "setting": "20 µM", "endpoint": "inhibition", "value": "2.27%"}
{"Substance": "Cc1cc(/C=C/C#N)cc(C)c1Nc1nc(Nc2ccc(/C=C/C#N)cc2)ncc1N", "target or system": "HIV-1", "test": "viral replication, single-round infection", "test system": "RT mutant M184I", "endpoint": "EC50", "value": "0.4 ± 0.1 nM"}
{"Substance": "COc1ccc2cc3[n+](cc2c1OC)CCc1cc2c(cc1-3)OCO2", "target or system": "SARS-CoV-2 spike protein", "test system": "Vero C1008", "setting": "20 µg/mL", "endpoint": "inhibition", "value": "96.7 ± 1.7%"}
{"Substance": "FolB (Mycobacterium tuberculosis, UniProt P9WNC5)", "target or system": "Nc1nc2c(c(=O)[nH]1)N=C([C@H](O)[C@H](O)CO)CN2", "test": "steady-state kinetics", "setting": "pH 7, 25 °C", "endpoint": "Km", "value": "0.165 µM"}
{"Substance": "CCc1c(C(=O)C(N)=O)c2c(OCC(=O)O)cccc2n1Cc1ccccc1", "target or system": "C2C12", "setting": "1 µM, with: MP venom", "how to read": "baseline: venom alone", "endpoint": "viability difference", "value": "17.7%"}
{"Substance": "CNCCN(C)c1nc(NC(C)c2ccccc2)c2ccccc2n1 (stereo not drawn)", "target or system": "SARS-CoV-2", "test": "cytopathic effect, cell-based CPE", "test system": "USA_WA1/2020", "setting": "round 2, 5-point dilution", "endpoint": "maximal response", "value": "102%"}
{"Substance": "LPYAK", "test": "DSC", "test system": "peptide, 7/3 SOPC/cholesterol bilayers", "setting": "5 mol%, pH 7.40, SOPC chain melting transition", "endpoint": "transition enthalpy", "value": "4.6 kJ/mol"}
{"Substance": "CCCCN(C)CCNC(=O)c1cc(-c2ccc(Cl)s2)nc2ccccc12", "target or system": "SARS-CoV-2", "test": "cytopathic effect", "test system": "USA_WA1/2020", "setting": "retest, 8-point, duplicates", "endpoint": "efficacy", "value": "54.6%"}
{"Substance": "KKRWQLALSKGVHFV", "target or system": "human CD4 T cells", "test": "AIM", "test system": "peptide", "endpoint": "responding donors", "value": "18%"}
{"Substance": "Cc1cc(/C=C/C#N)cc(C)c1Nc1ccnc(Nc2ccc(C#N)cc2)n1", "target or system": "HIV-1", "test": "viral replication, single-round infection", "test system": "RT mutant K101E/M184V", "endpoint": "EC50", "value": "0.2 nM"}
{"Substance": "Cc1cc(C)cc(-c2ccc(CN3CCCC3C(=O)NCc3cccc(F)c3)cc2)c1 (stereo not drawn)", "target or system": "SARS-CoV-2", "test": "cytopathic effect", "test system": "USA_WA1/2020", "setting": "retest, 8-point, duplicates", "endpoint": "efficacy", "value": "15.1%"}
{"note": "Excerpt of the above:"}
{"Substance": "IGNYKLNTDHSSSSD", "target or system": "human CD4 T cells", "test": "AIM", "test system": "peptide", "endpoint": "responding donors", "value": "15%"}
{"Substance": "CC(C)(C)N1CCC(c2ccccc2)(c2ccccc2)CC1", "target or system": "SARS-CoV-2", "test": "cytopathic effect, cell-based CPE", "test system": "USA_WA1/2020", "setting": "round 1, 5-point dilution", "endpoint": "AC50", "value": "10000 nM"}
{"Substance": "ω-agatoxin IVA", "test": "cAMP signalling, high-content microscopy", "test system": "DRG neurons, rat, spinal cord injury", "setting": "dose not given, normalised 0 to 1, unit not given, with: forskolin, DAMGO 0.3", "how to read": "baseline: DAMGO maximum, higher = stronger inhibition", "endpoint": "PKA-RII phosphorylation inhibition", "value": "0.838 and 0.732 and 0.568"}
